Results collected from several papers.
Values joined by “and” are separate records of one study, mostly repeats; a detail may differ.
Cell line: HaCaT

COc1cc(/C=C/C(=O)O)ccc1O — subcytotoxic concentration (MTT; 24 h, 10% FBS DMEM): 50 µM
Cc1ccc(NS(=O)(=O)c2c(C(=O)N3CCCCCC3)c(C)n(C)c2C)c(Cl)c1 — viability (100 µM, 60 h): 95.7% and 102%
COC(=O)/C=C/c1ccc(O)c(OC)c1 — subcytotoxic concentration (MTT; 24 h, 10% FBS): 50 µM
CC[C@H](C)[C@H](NC(=O)[C@H](CCC(=O)O)NC(=O)[C@H](CCCNC(=N)N)NC(=O)[C@H](CC(C)C)NC(=O)[C@H](CCCCN)NC(=O)CNC(=O)[C@H](CC(C)C)NC(=O)[C@H](Cc1ccccc1)NC(=O)[C@H](CC(N)=O)NC(=O)[C@H](CCCCN)NC(=O)[C@H](C)NC(=O)[C@H](CC(C)C)NC(=O)CNC(=O)[C@H](CO)NC(=O)[C@@H](NC(=O)[C@@H](NC(=O)[C@H](CO)NC(=O)[C@H](CCCNC(=N)N)NC(=O)[C@H](Cc1c[nH]c2ccccc12)NC(=O)[C@H](Cc1ccccc1)NC(=O)[C@H](CCCNC(=N)N)NC(=O)CNC(=O)[C@H](Cc1ccccc1)NC(=O)CN)C(C)C)[C@@H](C)CC)C(=O)N[C@@H](CO)C(=O)N[C@@H](CCC(N)=O)C(=O)N[C@@H](CC(C)C)C(=O)N[C@@H](Cc1ccc(O)cc1)C(=O)O — IC50 (cytotoxicity, MTT; 24 h, 37 °C): 7.09 µM
CC(C)C[C@H](NC(=O)[C@H](CC(C)C)NC(=O)[C@H](CCCCN)NC(=O)CNC(=O)[C@H](CC(C)C)NC(=O)CNC(=O)[C@H](CO)NC(=O)[C@H](CC(C)C)NC(=O)[C@H](CC(C)C)NC(=O)[C@H](CO)NC(=O)[C@H](CCCCN)NC(=O)[C@H](CC(C)C)NC(=O)[C@H](CCCCN)NC(=O)[C@H](CCCCN)NC(=O)[C@H](C)NC(=O)[C@H](C)NC(=O)[C@H](C)NC(=O)CNC(=O)[C@H](CO)NC(=O)[C@H](Cc1c[nH]c2ccccc12)NC(=O)[C@@H](N)CCCCN)C(=O)O — TC50 (MTS; 24 h): > 100 µM
CC[C@H](C)[C@H](NC(=O)[C@H](C)NC(=O)[C@H](CCCCN)NC(=O)[C@H](CCCCN)NC(=O)[C@@H](N)CCCNC(=N)N)C(=O)N[C@@H](CCCCN)C(=O)N[C@@H](CC(C)C)C(=O)N[C@H](C(=O)N[C@@H](CCCCN)C(=O)N[C@@H](CCCCN)C(=O)N[C@@H](CC(C)C)C(=O)N[C@H](C(=O)N[C@@H](CCCCN)C(=O)N[C@@H](CCCCN)C(=O)N[C@@H](CC(C)C)C(=O)N[C@@H](CCCCN)C(=O)N[C@@H](CCCCN)C(=O)N[C@@H](C)C(=O)N[C@@H](CC(C)C)C(=O)N[C@@H](CCCCN)C(=O)O)C(C)C)C(C)C — cell growth (MTT; 16 mg/L; baseline: untreated): 79.7% and 86.7% and 68.9% and 88.4% and 81.8%
CC(C)C[C@H](NC(=O)[C@H](CC(N)=O)NC(=O)[C@H](CCCNC(=N)N)NC(=O)[C@@H](CC(C)C)NC(=O)[C@H](Cc1ccc(-c2ccccc2)cc1)NC(=O)[C@H](CC(=O)O)NC(=O)[C@H](CCCNC(=N)N)NC(=O)[C@@H](CC(C)C)NC(=O)[C@H](CCCCN)NC(=O)[C@H](CCC(N)=O)NC(=O)[C@@H](NC(=O)[C@@H](CC(C)C)NC(=O)[C@H](CCCNC(=N)N)NC(=O)[C@H](CCCCN)NC(=O)[C@H](Cc1ccc(-c2ccccc2)cc1)NC(=O)CN)C(C)C)C(=O)N[C@H](C(N)=O)C(C)C — LC50 (cell viability, MTS; 1 h, 37 °C, 10% FBS): 35 µM
CC[C@H](C)[C@H](NC(=O)[C@H](C)NC(=O)[C@H](CCCCN)NC(=O)[C@H](CC(C)C)NC(=O)[C@@H](N)Cc1ccccc1)C(=O)N[C@@H](CCCCN)C(=O)N[C@@H](CCCCN)C(=O)N[C@@H](Cc1ccccc1)C(=O)NCC(=O)N[C@@H](CCCCN)C(=O)N[C@@H](CCC(=O)O)C(=O)N[C@@H](Cc1ccccc1)C(=O)N[C@@H](CCCCN)C(=O)N[C@@H](CCCCN)C(=O)N[C@H](C(=O)NCC(=O)N[C@@H](C)C(=O)N[C@@H](CCCCN)C(=O)N[C@@H](CC(C)C)C(=O)N[C@@H](CCCCN)C(=O)O)[C@@H](C)CC — cell growth (MTT; 8 mg/L; baseline: untreated): 92.2% and 95.7% and 89.8% and 98.2% and 97.1%
COC(=O)/C=C/c1ccc(O)c(O)c1 — CC50 (cell growth or viability, MTT; 24 h): 194 µM

For quick reference, copied from above:
CC[C@H](C)[C@H](NC(=O)[C@H](C)NC(=O)[C@H](CCCCN)NC(=O)[C@H](CCCCN)NC(=O)[C@@H](N)CCCNC(=N)N)C(=O)N[C@@H](CCCCN)C(=O)N[C@@H](CC(C)C)C(=O)N[C@H](C(=O)N[C@@H](CCCCN)C(=O)N[C@@H](CCCCN)C(=O)N[C@@H](CC(C)C)C(=O)N[C@H](C(=O)N[C@@H](CCCCN)C(=O)N[C@@H](CCCCN)C(=O)N[C@@H](CC(C)C)C(=O)N[C@@H](CCCCN)C(=O)N[C@@H](CCCCN)C(=O)N[C@@H](C)C(=O)N[C@@H](CC(C)C)C(=O)N[C@@H](CCCCN)C(=O)O)C(C)C)C(C)C — cell growth (MTT; 16 mg/L; baseline: untreated): 79.7% and 86.7% and 68.9% and 88.4% and 81.8%
